Results of several laboratories.
Parts stem from different laboratories: compare values within a part only. Substitutions count along the parent as printed.

Study 1
Target: Histone acetyltransferase KAT6A, winged helix 2, GST fusion (KAT6A, Homo sapiens, UniProt Q92794, residues 85-181)
Method: protein binding microarray
Molecule type: double-stranded DNA, one strand shown
Sample: in vitro
Concentration: not given
Setting: 8-mer, flanks averaged, mean of 2 arrays, mostly near background
Baseline: not given
Reading: higher = stronger binding
Construct (chain): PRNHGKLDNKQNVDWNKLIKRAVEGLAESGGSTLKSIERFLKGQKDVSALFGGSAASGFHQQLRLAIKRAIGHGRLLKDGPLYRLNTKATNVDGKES
| Sequence | E-score |
| --- | --- |
| CCCAGTTC | 0.103 |
| TCCAGCAA | 0.0578 |
| CGCTATCC | 0.0108 |
| ATATAACC | -0.176 |
| CAGCGAAG | 0.0843 |
| ATCTTCGA | -0.0175 |
| ACCAACGT | -0.196 |
| CATTACGG | -0.0848 |
| GAACAGAA | -0.0921 |
| GAATGCTC | 0.0537 |
| CACGCGGG | 0.204 |
| AAGGTCTG | -0.0816 |
| TCCGGGCA | 0.143 |
| GATTCGCA | 0.0825 |
| GGAACCAC | -0.0253 |
| CGAACTAG | -0.0819 |
| ACCTAACC | 0.0545 |
| ACGTTGAT | -0.0281 |
| ACTTTGCA | 0.121 |
| CCGCACAG | 0.138 |
| CTTACTCA | -0.0855 |
| ACGCAAGC | 0.125 |

Study 2
Target: Protein C-ets-1 (ETS1, Homo sapiens, UniProt P14921, residues 1-441, K379A, full length assumed)
Method: protein-binding microarray
Molecule type: double-stranded DNA, one strand shown
Sample: in vitro
Concentration: not given
Setting: k-mer, scored over probes, only values ≥0.25
Reading: higher = stronger binding
Residues (chain): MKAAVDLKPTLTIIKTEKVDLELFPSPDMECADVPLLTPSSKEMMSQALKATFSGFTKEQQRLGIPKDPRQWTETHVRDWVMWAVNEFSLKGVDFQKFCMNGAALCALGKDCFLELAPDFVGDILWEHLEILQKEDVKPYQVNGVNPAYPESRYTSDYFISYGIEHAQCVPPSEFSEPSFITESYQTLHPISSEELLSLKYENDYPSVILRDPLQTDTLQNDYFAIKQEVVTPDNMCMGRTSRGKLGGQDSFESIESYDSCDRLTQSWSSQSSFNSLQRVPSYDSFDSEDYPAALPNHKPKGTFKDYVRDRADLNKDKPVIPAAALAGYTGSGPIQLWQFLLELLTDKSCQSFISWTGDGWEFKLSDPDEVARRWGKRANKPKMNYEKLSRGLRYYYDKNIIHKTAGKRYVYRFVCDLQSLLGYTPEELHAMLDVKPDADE
| Sequence | E-score |
| --- | --- |
| AGAACGCG | 0.273 |
| AAGACCGG | 0.418 |
| GAGCGGAA | 0.281 |
| CGGTATCA | 0.257 |
| CACCGACC | 0.284 |
| CGGCGGTC | 0.272 |
| CCGCCGGA | 0.284 |
| CCGGGATA | 0.313 |
| GAATCACA | 0.292 |
| AGGACCGG | 0.397 |
| ACCGACGA | 0.332 |

Study 3
Target: CCNA2, cyclin fold, Cln2 fusion (human)
Method: yeast growth competition, sequencing
Sample: yeast
Setting: strong parent motif
Baseline: not given
Reading: higher = stronger binding
Starting sequence: SAMHD1 docking peptide (human); ASKSRVQLFKDDP
| Substitution | normalised enrichment score |
| --- | --- |
| ASKSRVQLFKDLP [D12L] | 2.8 |
| ASKCRVQLFKDDP [S4C] | 6.04 |
| ASKSRVQLFKRDP [D11R] | 1.6 |
| ASKSRVQHFKDDP [L8H] | -0.101 |
| AAKSRVQLFKDDP [S2A] | 2.79 |
| ASKSRVQNFKDDP [L8N] | 0.401 |
| ASKSRVQFFKDDP [L8F] | 0.113 |
| ASKSRVQLCKDDP [F9C] | -0.00555 |
| ASKSRVQLFKVDP [D11V] | 1.8 |
| ASKSRVQLFKDVP [D12V] | 3.2 |
| ASKSRVHLFKDDP [Q7H] | 0.457 |
| ASSSRVQLFKDDP [K3S] | 1.96 |
| ASKSEVQLFKDDP [R5E] | -0.259 |
| ASKSRVQLFCDDP [K10C] | 1.97 |
| ASKSRVQLFKADP [D11A] | 1.68 |
| ASKSRVQLFQDDP [K10Q] | 2.05 |

Study 4
Target: Sal-like protein 4, full length isoform A (SALL4, Homo sapiens, UniProt Q9UJQ4, residues 1-1053)
Sequence of UniProt Q9UJQ4 (whole entry, looked up): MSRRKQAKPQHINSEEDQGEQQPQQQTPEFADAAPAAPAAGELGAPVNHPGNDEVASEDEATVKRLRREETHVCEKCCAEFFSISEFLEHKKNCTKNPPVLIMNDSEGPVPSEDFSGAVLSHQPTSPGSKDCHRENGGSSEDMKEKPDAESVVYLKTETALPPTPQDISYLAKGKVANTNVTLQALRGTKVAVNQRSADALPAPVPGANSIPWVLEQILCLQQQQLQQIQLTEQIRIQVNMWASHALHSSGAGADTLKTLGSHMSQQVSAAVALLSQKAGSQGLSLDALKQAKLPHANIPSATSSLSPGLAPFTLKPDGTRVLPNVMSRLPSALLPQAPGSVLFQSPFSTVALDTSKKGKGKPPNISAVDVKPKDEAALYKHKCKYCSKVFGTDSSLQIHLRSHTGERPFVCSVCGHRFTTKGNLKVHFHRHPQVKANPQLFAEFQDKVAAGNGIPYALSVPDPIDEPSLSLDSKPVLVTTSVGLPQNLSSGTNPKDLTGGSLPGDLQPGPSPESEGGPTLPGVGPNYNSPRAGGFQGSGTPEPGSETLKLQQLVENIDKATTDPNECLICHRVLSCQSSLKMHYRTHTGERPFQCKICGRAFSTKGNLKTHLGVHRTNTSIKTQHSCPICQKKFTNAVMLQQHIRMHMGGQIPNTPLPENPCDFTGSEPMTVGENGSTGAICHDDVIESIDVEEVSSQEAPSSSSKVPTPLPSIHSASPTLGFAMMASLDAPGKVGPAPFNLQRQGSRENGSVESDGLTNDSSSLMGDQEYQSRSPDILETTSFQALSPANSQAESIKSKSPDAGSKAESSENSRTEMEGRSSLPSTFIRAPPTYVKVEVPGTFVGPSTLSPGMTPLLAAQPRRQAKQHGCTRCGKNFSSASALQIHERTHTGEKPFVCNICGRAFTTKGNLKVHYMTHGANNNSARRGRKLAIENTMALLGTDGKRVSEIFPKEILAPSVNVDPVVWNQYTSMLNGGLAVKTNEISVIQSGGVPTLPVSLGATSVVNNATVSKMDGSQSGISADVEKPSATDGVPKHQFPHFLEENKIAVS
Method: universal PBM
Molecule type: double-stranded DNA, one strand shown
Sample: in vitro
Concentration: 600 nM
Setting: 8-mer, flanks averaged, mean of replicates
Reading: higher = stronger binding
| Sequence | E-score |
| --- | --- |
| GGCGAGGA | -0.026 |
| CGGACCCC | -0.428 |
| ACTATTAT | 0.366 |
| GAAATGAC | 0.232 |
| GCCATTGA | 0.0507 |
| CCGTCCAG | -0.229 |
| CAAACCCC | -0.16 |
| TTGCCAAA | 0.118 |
| AGGTCCAC | -0.247 |
| AGTTCCGC | -0.171 |
| CAGTATTA | 0.204 |
| CACCCCAG | -0.267 |
| AGTTGCCC | -0.111 |
| GCTGTTCC | -0.175 |
| CAGACTCC | -0.285 |
| CATTCGAG | 0.0443 |
| ATGACACC | 0.0239 |
| AAAGCGCT | 0.159 |
| TGAGGAAA | 0.208 |
| ACATGAGC | -0.0324 |
| CACCTACC | -0.143 |
| ATTCTCGC | -0.119 |
| AAAGCACA | 0.0896 |
| CCGGACGA | -0.219 |
| CTCTCACA | 0.0524 |

Study 5
Target: RNA binding protein fox-1 homolog 2, RRM domain, GST-SBP tag (RBFOX2, Homo sapiens, UniProt O43251-10, residues 100-194)
Method: RNA Bind-n-Seq
Molecule type: RNA
Sample: in vitro
Concentration: 365 nM
Setting: natural RNA segment, single round, ends assumed
Baseline: no-protein control
Reading: higher = stronger binding
Shared flanks, not repeated: GGGAGUUCUACAGUCCGACGAUC … UGGAAUUCUCGGGUGCCAA
Residues (chain): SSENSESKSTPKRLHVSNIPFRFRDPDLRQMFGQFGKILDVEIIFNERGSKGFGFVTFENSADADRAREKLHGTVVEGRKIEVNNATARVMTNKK
| Sequence | RBNS enrichment (R) |
| --- | --- |
| UUUUUAAAUGUCACUUGAUACUAGAAUGCGAUUUAAAAGCAUGUAAUGCCUCAGGAGUCCGGCAUAUACAACCAAAUUAUCAUGCUCAGGAUCUUCAGAAUUCUAAAGGC | 0.904 |
| UUGUGUGGCUGAUGUGUCUGGAAAUGAUGUAGUUCAGGAAAGCAUUUUUUUUUUCUUUGAACCUUAAAGGUUCUAUUAUUAAAAGCAGCACAGAUUCCACAUUUUUAUAC | 0.877 |
| CUUGUGAAUGAAAAUGAACCCAAGUGUUUCACGUGAAGAUGAGCCAUUUCUAUCAUGCAUUCCGAUGUCAUGGCAGAAAAUUUUGAAGAUAAAAAAAUAAGAUAAUCAAA | 0.791 |
| ACUCCCUAGGAAAGUAACGGGCACCAGGCUUCGUGACUUUCAUUCUCAUUUAUAAGUUAGACAUUCAUUCACUAGAACAUUUAUGCUCAGAAUCUUCCUUAAGAGGGUGU | 0.408 |
| CAUUUCCUGAACCCAUGUCUUUUGGGGGUACAGCUUGUCAUCCAGCAGGAAUUAUUGAGCGAGCAGGACUGGAGGAGACGGGAAUGAAGACACAAGAGUGACAUCUGAUC | 0.648 |
| CAGCACAGUAACGUGCAUACAUAUCUGCAGGGCUGGAAUGGAAGCUUUAAAGGUGGUAGUGAUUUUUAUUUUGGAAGAAUCAUGUUACCUUUUUGUUAAAUAAAAUUUGU | 0.563 |
| UAGUCUUCAGUUUCAUUUUCCUGUGCCCUGUGGUAGUUGGAAACAAAUCAUAAUGUAUUAUUUAAAUGUUUAACAUCAUUGCAUAACAGCGUUUAUUAUACAGUGGCAGA | 0.346 |
| AGGUUUUGGUAAAUGUGAACUUGUUUCUAGGUUAACAGUCAAGGAGAGGGACAUGAAUCGUGCAUGUUGUUGUUUUUGACAGUGUGGCUGUCAGUUUUGAAUUCCUCCAU | 1.54 |
| UUCCUGUAUAUAAAGGAUGUAAUUACAGGAUAUAGUGGUAAUGCAUUAAAACAUGAACCUCAUUUUAGAAAUCGACAGCUAUGGUAUUUUUUUAAUGAUCAGCUUUUCUG | 15.6 |
| GUAUAUUUAUUUUUAUGUAUGUUACUAUGUAAAUAUGGUUUGCAGUUGUUUUUGUGUGGAAUCUUGUCUUUCCGUAUAAGUUGUAAGCUCCUUGAGAGCAGGAUCCAUGU | 0.559 |
| AAUGCUAUUGAAAAGGUUAACAGAUACAGCUCGGAGUUGUGAGCACUCUACUGCAAGACUUAAAUAGUUCAGUAUAAAUUGUCGUUUUUUUCUUGUGCUGACUAACUAUA | 1.03 |
| AUGUACAGUUAUCUAAGUUAAUUUAAAGUUGUUUGUGCCUUUUUAUUUUUGUUUUUAAUGCUUUGAUAUUUCAAUGUUAGCCUCAAUUUCUGAACACCAUAGGUAGAAUG | 1.2 |

Study 6
Target: RING finger protein unkempt homolog, zinc fingers 1-6, GST-SBP tag (UNK, Homo sapiens, UniProt Q9C0B0, residues 30-357)
Method: RNA Bind-n-Seq
Molecule type: RNA
Sample: in vitro
Concentration: not given
Setting: RNA with constant flanks, human and mouse sites, ends assumed
Baseline: input RNA pool
Reading: higher = stronger binding
Shared flanks, not repeated: GGGAGUUCUACAGUCCGACGAUC … CAACAGAGGAUUGAGCAUCA
Construct (chain): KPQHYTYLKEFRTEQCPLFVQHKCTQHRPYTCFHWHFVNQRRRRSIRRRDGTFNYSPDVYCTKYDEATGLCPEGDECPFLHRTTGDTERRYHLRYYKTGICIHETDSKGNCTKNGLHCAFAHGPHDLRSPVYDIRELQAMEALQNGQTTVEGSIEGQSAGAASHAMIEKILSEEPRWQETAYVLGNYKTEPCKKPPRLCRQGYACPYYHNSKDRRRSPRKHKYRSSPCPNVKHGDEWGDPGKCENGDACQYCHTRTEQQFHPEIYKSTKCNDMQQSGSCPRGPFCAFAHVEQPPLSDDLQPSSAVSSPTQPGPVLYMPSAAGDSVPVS
| Sequence | bound/input enrichment [ratio] |
| --- | --- |
| AGGAACAAGAUGAAAAGAGUGAAACUUCACAGCUGCUUUGUUAAGGCUCCCCAAUACCCUUAGGGGCACGGAGGACGCAGCUCGCGAAAUCCACUUCCGAUUGGUCGUCUGUGACCUCAC | 0.12 |
| GUGCGAGGUCUCUUAGUGAAUGAGGAGAUCCUAGGGAACCAGAUCCACAUGCACGUAACAGCUAAGGAAUAUGGUGCCCGUGUCUCCAACCUACACAUGUACUCAGCUGUCUGUGCUGAC | 0.058 |
| UUUGGAGCCCCUCCUCAUGCUGGUGGAGGCAUUGGAUUGGAACGAGUUACUAUGCUGUUUCUGGGAUUGCAUAAUGUUCGUCAGACCUCCAUGUUCCCUCGUGAUCCCAAACGACUCACU | 0.15 |
| UUCAAAAUUGGAGCAUGUCGUCAUGGAGACAGGUGCUCUCGGUUGCACAAUAAACCGACGUUUAGCCAGACCAUUGCCCUCUUGAACAUUUACCGUAACCCUCAAAACUCUUCCCAGUCU | 0.237 |
| AAUUAUCAAGUUUUAUUCACCUCAAAUCCCACUGGGUUCUUAAAACUUGAAAAUUCAAAUUGUAGAGAAUUAUGAGACACAAUGUGAUGUUUAGUUAAAGUCAUGCUAUACCUUUCUGGG | 1.13 |
| ACUGAAGACAAACUUUAUAAUCUCCUGCUCUUGAGAAUGUGCCGAUAUGUCAAAAUAUCUACUGAAACUGAAGAAACUGAAGGAUCCCUACACUGCUGUAAGGACCAAAAUAUUAAUGGG | 0.0988 |
| GAAGGAGAGGAAUACUAAAUUAAAUGUCACAAGGUGCUGCUUCCACAGGGAUGUUUAUUGUGUUCCAACACAGAAAGUUGUGGUCUGAUCAGUUAAUUUGUAUGUGGCAAUGUGUGCUUU | 0.351 |
| UUGAACCAGGCUGCUGGAGCUUGCUCCCUCCCGCCCUCUCUCUUUUUUUUCCACGGGGCUGUUUUUUUAAUUUGGCUGCAAUUGCAUGAAAUCCCAAUGGUGUAGACCAGUGGCGAUGGA | 0.398 |
| AUUUUUGAUGAAUUCCGAACAGUCCUGUGACUUCUUUCUCCUGCUCCAGUGACAGGAUGUUCUAUGACUAGAAUGAACUUGGACGUGAGAAAGAUACUUGACUCCUCAUGCAACGUGCAU | 0.0963 |
| AAACCUUCAACUGUAGAAGUUCUAGAAAGUAUAGAUAAGGAAAUUCAAGCAUUGGAAGAAUUUAGGGAAAAAAAUCAGAGAUUACAAAAAUUAUGGGUUGGAAGAUUAAUUCUGUAUUCC | 11.1 |
| CAGAGUUUACUUUUCAGAUCAAAUUGUUUAUGGUUUUACAAAUGUGAUUUCUACUUGCCAACUUUUUUUUUGUAACUUGUUCCCUUAUACCUCCUUGAUUGAAUACCAGACAGCCUAGAC | 0.686 |

Some of these lines once more (study 1):
| Sequence | E-score |
| --- | --- |
| CGAACTAG | -0.0819 |
| TCCGGGCA | 0.143 |
| AAGGTCTG | -0.0816 |
| CCCAGTTC | 0.103 |
| ACGTTGAT | -0.0281 |
| ACCAACGT | -0.196 |
